{"data": "Experimental data pooled from the literature", "note": "Protocols differ between the studies behind these lines. ± gives the spread as reported.", "sequence of UniProt P08684 (whole entry, unmodified, looked up)": "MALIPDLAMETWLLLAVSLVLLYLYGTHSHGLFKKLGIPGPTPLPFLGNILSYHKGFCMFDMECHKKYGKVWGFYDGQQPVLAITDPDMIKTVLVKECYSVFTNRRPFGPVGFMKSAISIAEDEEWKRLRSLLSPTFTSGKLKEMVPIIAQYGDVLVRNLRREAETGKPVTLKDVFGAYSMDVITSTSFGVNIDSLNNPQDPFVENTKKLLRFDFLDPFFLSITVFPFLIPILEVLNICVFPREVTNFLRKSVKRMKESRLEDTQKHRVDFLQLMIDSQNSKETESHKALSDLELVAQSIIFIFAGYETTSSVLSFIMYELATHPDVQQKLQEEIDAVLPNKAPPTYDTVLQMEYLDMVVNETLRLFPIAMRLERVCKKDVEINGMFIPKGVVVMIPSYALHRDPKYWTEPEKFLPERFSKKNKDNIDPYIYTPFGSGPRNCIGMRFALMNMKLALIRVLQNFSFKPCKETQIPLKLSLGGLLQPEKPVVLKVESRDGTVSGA"}
{"Compound": "COc1ccc(CNc2nc(N3CCC[C@H]3CO)ncc2C(=O)NNC(=O)c2cnc(N3CCC[C@H]3CO)nc2NCc2ccc(OC)c(Cl)c2)cc1Cl", "tested on": "Salmonella typhimurium", "assay": "Ames test", "system": "TA98, TA100, TA1535, TA102, TA97a", "conditions": "5000, 2500, 1600 µg/plate, preliminary test", "measurement": "toxicity", "value": "toxic"}
{"Compound": "NC(=O)CCCn1c2ccc([N+](=O)[O-])cc2c(=O)n1Cc1ccccc1", "tested on": "Leishmania amazonensis", "system": "mouse peritoneal macrophages", "conditions": "intracellular amastigotes", "scale": "baseline: CC50 macrophages over IC50 amastigotes", "measurement": "selectivity index", "value": 2}
{"Compound": "COC(=O)CN1CCN(CC(=O)OC)CCN(Cc2cc(-c3nc4ccccc4s3)cc(OC)c2O)CC1", "tested on": "copper(II) ion", "assay": "metal chelation, spectrophotometric titration", "system": "aqueous solution", "conditions": "50 µM, pH 6.6, with: Cu(II) 50 µM", "scale": "higher = stronger binding", "measurement": "pCu", "value": 9.4}
{"Compound": "[64Cu+2].c1cnc(CNCc2ccc(CN3CCCN4CCNCCCN(CC4)CC3)cc2)nc1", "tested on": "CXCR4", "system": "NOD/SCID mouse, U87 and U87-stb-CXCR4 xenografts, muscle", "conditions": "iv, 90 min, ex vivo, with: AMD3465 25 mg/kg sc before tracer", "measurement": "tissue uptake", "value": "0.27 ± 0.12 %ID/g"}
{"Compound": "Cn1c(=O)oc2ccc(-c3ccc(CC(C#N)NC(=O)C4CNCCCO4)c(F)c3)cc21 (stereo not shown)", "assay": "refers to: anaemia", "system": "human", "conditions": "15 mg single dose, fasted", "measurement": "subjects with TEAE", "value": "0%"}
{"Compound": "O=C(O)CCC(NP(=O)(O)OCCC[C@@H](NC(=O)CC[C@H](NC(=O)CCCCCNC(=O)c1ccc([18F])cc1)C(=O)O)C(=O)O)C(=O)O (stereo partly shown)", "tested on": "CWR22Rv1 tumour model", "system": "host not given, tumour", "conditions": "4 h, tumour-bearing", "measurement": "tracer uptake", "value": "2.33 %ID/g"}
{"Compound": "CNCCCn1c2ccc([N+](=O)[O-])cc2c(=O)n1Cc1ccccc1", "tested on": "Leishmania amazonensis", "system": "promastigotes, MHOM/BR/77/LTB0016", "scale": "baseline: CC50 macrophages over IC50 promastigotes", "measurement": "selectivity index", "value": 1}
{"Compound": "CCN(CC)c1ccc2c(-c3ccc(S(=O)(=O)NCCNC(=O)CN4CCN(CC(=O)[O-])CCN(CC(=O)O)CCN(CC(=O)[O-])CC4)cc3S(=O)(=O)[O-])c3ccc(=[N+](CC)CC)cc-3oc2c1.[64Cu+2]", "tested on": "U-87 MG tumour model", "system": "host not given, liver", "conditions": "4 h, tumour-bearing", "measurement": "tracer uptake", "value": "7.7 %ID/g"}
{"Compound": "CN(C)CCCn1c2ccc([N+](=O)[O-])cc2c(=O)n1Cc1ccccc1", "tested on": "Leishmania amazonensis", "system": "promastigotes, MHOM/BR/77/LTB0016", "scale": "baseline: CC50 macrophages over IC50 promastigotes", "measurement": "selectivity index", "value": 0.4}
{"Compound": "[64Cu+2].c1ccc(CNCc2ccc(CN3CCCN4CCNCCCN(CC4)CC3)cc2)nc1", "tested on": "CXCR4", "system": "NOD/SCID mouse, U87 and U87-stb-CXCR4 xenografts, blood", "conditions": "iv, 240 min, ex vivo", "measurement": "tissue uptake", "value": "1.64 ± 0.28 %ID/g"}
{"Compound": "COc1ccc2cc(NC(=O)c3cc(-c4cccnc4)nc4ccccc34)ccc2c1", "tested on": "Cytochrome P450 3A4 (CYP3A4, Homo sapiens, UniProt P08684, S18F)", "assay": "binding, surface plasmon resonance", "conditions": "10 °C", "measurement": "koff slow phase", "value": "0.0053 s⁻¹"}
{"Compound": "COC(=O)CCn1c2ccc([N+](=O)[O-])cc2c(=O)n1Cc1ccccc1", "tested on": "Leishmania amazonensis", "system": "promastigotes, MHOM/BR/77/LTB0016", "scale": "baseline: CC50 macrophages over IC50 promastigotes", "measurement": "selectivity index", "value": 12}
{"Compound": "O=C1CC(c2ccc(O)cc2)Oc2cc(O)cc([O][Ga+][O]c3cc(O)cc4c3C(=O)CC(c3ccc(O)cc3)O4)c21 (stereo not shown)", "tested on": "Pseudomonas aeruginosa", "system": "A549, PAO1", "conditions": "2 h", "measurement": "protective concentration", "value": "~1 µg/mL"}
{"note": "Excerpt of the above:"}
{"Compound": "[64Cu+2].c1ccc(CNCc2ccc(CN3CCCN4CCNCCCN(CC4)CC3)cc2)nc1", "tested on": "CXCR4", "system": "NOD/SCID mouse, U87 and U87-stb-CXCR4 xenografts, blood", "conditions": "iv, 240 min, ex vivo", "measurement": "tissue uptake", "value": "1.64 ± 0.28 %ID/g"}
